Published values of several laboratories.
Lines come from different studies, so protocols differ.
SRC: Proto-oncogene tyrosine-protein kinase Src (SRC, Homo sapiens, UniProt P12931)

| target | test | system | setting | scale | endpoint | value | SMILES |
| --- | --- | --- | --- | --- | --- | --- | --- |
| SRC | inhibitor, KiNativ profiling | biochemical | 2 µM |  | inhibition | 70.8% | C=CC(=O)Nc1cc(-c2nn(C3CCN(CCNC(=O)[C@H](C)CCC45CC6CC(CC(C6)C4)C5)CC3)c3ncnc(N)c23)ccc1Oc1ccccc1 |
| SRC | enzyme activity, inhibitor |  | 10 µM |  | inhibition | 22% | NC(=O)C[C@H]1CCc2sc3ncnc(O[C@H]4CC[C@H](N5CCOCC5)CC4)c3c21 |
| SRC | binding, competition with immobilised ligand |  | 1 µM |  | remaining binding | 100% | COc1cc(Nc2nc(C)cc(-c3cnn4nc(OC)ccc34)n2)cc(C(F)(F)F)c1 |
| SRC | kinase activity, KinaseProfiler |  | 0.03 µM, species human | relative to: control | remaining activity | 98% | COc1ccc(NC(=O)Nc2ccc3c(c2)C(=O)N(C(C)CO)CC(C)C(CN(C)Cc2ccc4c(c2)OCO4)O3)cc1 (centres unmarked) |
| SRC | KinomeScan |  | 0.1 µM | relative to: untreated | remaining binding | 98% | CNC1C[S+]2CC[S+]3CC[S+](C1)[Ru-4]321([N]=C=S)[n]2c3ccc(OC)cc3c3c4c(c5cc(F)c[n+]1c5c32)C(=O)NC4=O (centres unmarked) |
| SRC | enzyme activity, inhibitor |  | 0.5 µM |  | inhibition | 29.7% | Cc1[nH]nc2c1N=C(c1ccccc1Cl)c1cnc(N3CCOCC3)cc1N2 |
| SRC | cell-free assay, competition with immobilised ligand |  | 10 µM |  | remaining binding | 100% | C=C1CCCCCCCCCC(CO)C1=O (centres unmarked) |
| SRC | enzyme activity, inhibitor |  | 0.25 µM |  | remaining activity | 4% | c1ccc2c(Nc3cc(C4CCC4)[nH]n3)nc(Nc3ccc4nc[nH]c4c3)nc2c1 |
| SRC | enzyme activity, inhibitor |  | 0.1 µM |  | inhibition | 13% | CN1CCN(Cc2ccc(-c3ccc(CO[C@H]4CCC[C@@H]4NC(=O)c4cc(-c5cnn(C)c5)cnc4N)cc3)cc2)CC1 |
| Proto-oncogene tyrosine-protein kinase Src, N1 isoform (SRC, Homo sapiens, UniProt P12931) | kinase activity |  | 0.1 µM, added: ATP at Km |  | inhibition | -2.7% | CCn1cc(C(=O)O)c(=O)c2c(N)c(F)c(NC3CCCCC3)cc21 |
| SRC | enzyme activity, inhibitor, FRET |  | 1 µM |  | inhibition | 2% | C[C@H]1CN(C(=O)c2cn(-c3ccnc(N)n3)c3cc(C#CC4(O)CCCCC4)ccc23)CCN1 |
| SRC | cell-free assay, competition with immobilised ligand |  | 1 µM |  | remaining binding | 94% | C=CC(=O)N1CCCC(n2c(=O)c3ncccc3n(Cc3ccc(Oc4ccccc4)cc3)c2=O)C1 (centres unmarked) |
| SRC |  |  | 100 nM |  | inhibition | 1.6% | COc1cc(OC)c(F)c(/C=C/c2cnc3ccn(S(=O)(=O)c4cn(CCF)cn4)c3n2)c1F |
| SRC | enzyme activity, Dundee kinase panel |  | 10 µM |  | remaining activity | 88% | Cc1cccc(-c2ccc3nc(NC(=O)C4CCCCC4)nn3c2)c1 |
| SRC | enzyme activity, inhibitor |  | 1 µM |  | remaining activity | 97% | O=c1c(-c2ccc(Cl)c(CN3CCOCC3)c2)coc2cc(O)ccc12 |
| SRC | cell-free assay, competition with immobilised ligand |  | 3 µM |  | remaining binding | 100% | COc1c(Cl)cccc1Nc1c(-c2ccncc2C#C[C@@]2(C)CCCN2C(=O)/C=C/CN(C)C)[nH]c2c1C(=O)NCC2 |
| SRC | binding, competition with immobilised ligand |  | 10 µM |  | remaining binding | 59% | CC(=O)N1c2ccc(-c3ccc(CNC(=O)c4cn5cc(-c6cnc(N)nc6)nc(N6CCOCC6)c5n4)cc3)cc2CC[C@@H]1C |
| SRC | enzyme activity, inhibitor |  | 1 µM |  | inhibition | 4% | Cc1cccc(O[C@H]2CCC[C@@H](C(C)CNCc3ccncc3)C2)c1 (relative stereo) |
| SRC | cell-free assay, competition with immobilised ligand |  | 0.5 µM |  | remaining binding | 0.3% | CN1CCN(Cc2ccc(NC(=O)c3cccc(C#Cc4cnc(N)c5ncccc45)c3)cc2C(F)(F)F)CC1 |
| SRC | binding, competition with immobilised ligand |  | 1 µM |  | remaining binding | 93% | Nc1ncc2c(n1)-c1c([nH]c3ccc(C4=CCOCC4)cc13)CCC2 |
| SRC | enzyme activity, inhibitor |  | 0.1 µM |  | inhibition | 12% | C=CC(=O)Nc1cccc(-c2cnc3[nH]cc(C(=O)NC(C)(C)C)c3n2)c1 |
| SRC | target engagement, NanoBRET | human cells |  |  | Hill slope | -12.2 | Cc1ccc(C(=O)Nc2ccc(CN3CCN(C)CC3)c(C(F)(F)F)c2)cc1C#Cc1cnc2cccnn12 |
| SRC | KINOMEscan |  | 1 µM | relative to: DMSO control | remaining binding | 94% | C=CC(=O)N1CCc2ccc(-n3c(=O)ccc4cnc5ccc(-c6cnn(C)c6)cc5c43)cc21 |
| SRC | enzyme activity, inhibitor |  | 10 µM |  | activity vs control | 132% | O=C(Cc1ccc(OCc2ccccc2)cc1)NC1(C(=O)O)CCN(C(=O)c2ccc(-c3cccc(Cl)c3)cc2)CC1 |
| SRC | enzyme activity, Dundee kinase panel |  | 10 µM |  | remaining activity | 93% | Cc1cccc(-c2ccc3nc(NC(=O)C4CCOCC4)nn3c2)c1 |
| SRC | cell-free assay, competition with immobilised ligand |  | 1 µM |  | remaining binding | 71% | Cc1ccc(-c2c(/C=C(\C#N)C(=O)NC(C)C)n(CCCO)c3ncnc(N)c23)cc1 |
